Experimental data collected from several papers.
Each numbered part is a random draw from the data of one study; scales do not carry over between parts.
UniProt Q9H093, sequence (whole entry, looked up): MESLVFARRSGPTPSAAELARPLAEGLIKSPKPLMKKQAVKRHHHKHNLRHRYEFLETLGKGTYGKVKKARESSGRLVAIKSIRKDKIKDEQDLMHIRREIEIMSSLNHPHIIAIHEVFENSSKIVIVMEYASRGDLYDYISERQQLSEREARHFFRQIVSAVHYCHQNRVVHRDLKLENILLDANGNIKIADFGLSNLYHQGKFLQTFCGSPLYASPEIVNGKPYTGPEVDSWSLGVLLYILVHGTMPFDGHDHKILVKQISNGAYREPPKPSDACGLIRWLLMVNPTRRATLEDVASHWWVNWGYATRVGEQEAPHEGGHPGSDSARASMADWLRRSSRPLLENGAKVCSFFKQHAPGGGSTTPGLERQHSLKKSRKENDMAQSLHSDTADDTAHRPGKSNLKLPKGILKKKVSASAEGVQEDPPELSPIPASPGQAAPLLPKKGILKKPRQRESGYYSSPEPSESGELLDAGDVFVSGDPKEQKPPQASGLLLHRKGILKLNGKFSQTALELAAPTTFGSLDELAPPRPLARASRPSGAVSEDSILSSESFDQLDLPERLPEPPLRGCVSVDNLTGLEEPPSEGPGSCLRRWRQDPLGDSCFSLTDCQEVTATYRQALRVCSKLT
UniProt Q8TD19, sequence (whole entry, looked up): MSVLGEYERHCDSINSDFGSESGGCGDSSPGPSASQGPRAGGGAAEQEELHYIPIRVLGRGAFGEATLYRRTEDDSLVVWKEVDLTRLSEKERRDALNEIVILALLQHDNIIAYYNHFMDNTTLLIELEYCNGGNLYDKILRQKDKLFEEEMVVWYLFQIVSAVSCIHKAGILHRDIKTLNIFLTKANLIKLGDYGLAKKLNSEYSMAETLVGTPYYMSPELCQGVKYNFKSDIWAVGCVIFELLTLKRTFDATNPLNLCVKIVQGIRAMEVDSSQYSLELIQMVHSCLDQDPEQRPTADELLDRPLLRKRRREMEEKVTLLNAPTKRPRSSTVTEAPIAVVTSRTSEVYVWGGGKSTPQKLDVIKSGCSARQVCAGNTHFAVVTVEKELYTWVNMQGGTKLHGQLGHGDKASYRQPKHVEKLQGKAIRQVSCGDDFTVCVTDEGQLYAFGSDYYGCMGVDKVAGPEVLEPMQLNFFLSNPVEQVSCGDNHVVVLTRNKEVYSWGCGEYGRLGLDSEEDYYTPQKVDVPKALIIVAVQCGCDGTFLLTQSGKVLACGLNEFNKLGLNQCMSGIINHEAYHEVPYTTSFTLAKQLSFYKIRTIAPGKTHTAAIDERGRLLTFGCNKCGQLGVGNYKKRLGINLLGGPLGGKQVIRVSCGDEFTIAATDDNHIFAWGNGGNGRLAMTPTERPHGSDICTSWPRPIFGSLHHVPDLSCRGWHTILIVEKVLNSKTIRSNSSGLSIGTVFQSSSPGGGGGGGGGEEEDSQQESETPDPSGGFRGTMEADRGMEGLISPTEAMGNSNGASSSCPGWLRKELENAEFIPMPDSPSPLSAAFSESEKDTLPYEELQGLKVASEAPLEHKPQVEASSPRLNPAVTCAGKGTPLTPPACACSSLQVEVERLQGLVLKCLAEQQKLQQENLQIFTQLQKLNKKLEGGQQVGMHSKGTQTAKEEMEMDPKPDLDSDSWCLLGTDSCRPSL
UniProt Q16539, sequence (whole entry, looked up): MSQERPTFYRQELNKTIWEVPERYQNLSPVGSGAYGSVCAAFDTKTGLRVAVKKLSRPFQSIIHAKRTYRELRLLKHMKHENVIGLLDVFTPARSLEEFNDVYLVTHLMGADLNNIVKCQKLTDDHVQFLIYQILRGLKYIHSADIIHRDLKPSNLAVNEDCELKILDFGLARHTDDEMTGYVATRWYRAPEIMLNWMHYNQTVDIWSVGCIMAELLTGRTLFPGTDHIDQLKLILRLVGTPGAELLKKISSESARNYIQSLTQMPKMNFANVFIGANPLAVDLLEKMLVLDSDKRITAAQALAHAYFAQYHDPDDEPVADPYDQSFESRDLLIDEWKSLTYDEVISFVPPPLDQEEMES

Block 1
Target: Serine/threonine-protein kinase Sgk3 (SGK3, Homo sapiens, UniProt Q96BR1)
UniProt Q96BR1, sequence (whole entry, looked up): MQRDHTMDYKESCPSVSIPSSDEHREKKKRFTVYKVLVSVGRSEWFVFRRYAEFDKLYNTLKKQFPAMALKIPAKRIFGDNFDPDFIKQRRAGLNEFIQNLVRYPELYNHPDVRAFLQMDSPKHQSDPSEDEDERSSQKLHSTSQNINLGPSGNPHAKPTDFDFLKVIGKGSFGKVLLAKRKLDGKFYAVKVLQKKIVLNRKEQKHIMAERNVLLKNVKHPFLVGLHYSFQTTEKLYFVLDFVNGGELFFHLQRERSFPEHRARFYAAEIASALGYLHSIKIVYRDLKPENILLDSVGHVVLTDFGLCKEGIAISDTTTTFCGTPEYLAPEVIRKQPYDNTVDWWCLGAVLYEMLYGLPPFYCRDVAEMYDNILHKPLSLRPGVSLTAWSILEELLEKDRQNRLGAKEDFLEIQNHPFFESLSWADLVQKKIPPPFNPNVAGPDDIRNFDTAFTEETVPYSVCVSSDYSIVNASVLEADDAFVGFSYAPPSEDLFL
Observed: enzyme activity
Mode: inhibitor
Concentration: 0.5 µM
Relative to: control
`CN([C@@H](Cc1ccc(OS(=O)(=O)c2cccc3cnccc23)cc1)C(=O)N1CCN(c2ccccc2)CC1)S(=O)(=O)c1cccc2cnccc12` gave a remaining activity of 104%.
`O=C(Nc1cccc(Nc2nccc(Nc3cccc(C(F)(F)F)c3)n2)c1)C1CC1` gave a remaining activity of 111%.
`Nc1cccc(-c2cc3c(Oc4cccc(O)c4)ncnc3[nH]2)c1` has a remaining activity of 117%.
`N#Cc1c(NC(=O)c2cccc3ccccc23)sc2c1CCCC2` has a remaining activity of 107%.
With `O=c1cc(-c2cccc3c2Sc2ccccc2S3)oc(N2CCOCC2)c1` the remaining activity was 98.6%.
`Cc1nc2cc3nc(-c4cccs4)cnc3cc2n1C` has a remaining activity of 105%.
With `CCN(CC)C(=O)c1ccc(Nc2nc(OCC3CCCCC3)c3[nH]cnc3n2)cc1` the remaining activity was 97.2%.
For `Ic1cccc(CSc2nnc(-c3ccncc3)o2)c1`, the remaining activity was 98.5%.
With `c1ccc(-c2[nH]ncc2-c2ccnc3ccccc23)nc1` the remaining activity was 97.4%.
`Cc1cn(-c2cc(NC(=O)c3ccc(C)c(Nc4nccc(-c5cccnc5)n4)c3)cc(C(F)(F)F)c2)cn1` gave a remaining activity of 102%.
With `O=C(NC(NC(=S)Nc1ccc(F)c([N+](=O)[O-])c1)C(Cl)(Cl)Cl)C(c1ccccc1)c1ccccc1` (stereo not shown) the remaining activity was 85.8%.
The remaining activity of `N#C/C(=C\c1ccc(O)c(O)c1)C(=O)NCc1ccccc1` is reported as 102%.
For `CN(C)C[C@H]1CCn2c(c(C3=C(c4cn(C)c5ccccc45)C(=O)NC3=O)c3ccccc32)C1`, the remaining activity was 95%.
`COc1cc2c(cc1OC)-c1[nH]nc(Nc3cccc(F)c3)c1C2` gave a remaining activity of 92.7%.
The remaining activity of `Cn1nc2c3c(cccc31)C(=O)c1ccccc1-2` is reported as 107%.
`CCN(CC)CCNC(=O)c1c(C)[nH]c(/C=C2\C(=O)Nc3ccc(Cl)cc32)c1C` has a remaining activity of 103%.
For `COc1cc2ncnc(Nc3cccc(Cl)c3)c2cc1OC`, the remaining activity was 90.9%.
For `O=C1c2ccccc2-c2n[nH]c3cccc1c23`, the remaining activity was 94.6%.
`O=C1C(Cl)=C(N2C(=O)CCC2=O)C(=O)c2ccccc21` has a remaining activity of 103%.
For `Cc1cc2ncc(-c3ccccc3)nc2cc1C`, the remaining activity was 101%.

Block 2
Compound: CCC(=O)N[C@H]1CC[C@@H](C(=O)N(C)c2ccc(-c3nc4ccccc4o3)cc2)C1
Observed: cell-free assay
Method: competition with immobilised ligand
Concentration: 1 µM
It gave 89% for remaining binding (Cyclin-dependent kinase 15 (CDK15, Homo sapiens, UniProt Q96Q40)).
It gave 61% for remaining binding (SRSF protein kinase 2 (SRPK2, Homo sapiens, UniProt P78362)).
Mitogen-activated protein kinase 7 (MAPK7, Homo sapiens, UniProt Q13164) — remaining binding: 78%.
It gave 78% for remaining binding (Serine/threonine-protein kinase SIK2 (SIK2, Homo sapiens, UniProt Q9H0K1)).
Ephrin type-B receptor 1 (EPHB1, Homo sapiens, UniProt P54762) — remaining binding: 100%.
MAP kinase-interacting serine/threonine-protein kinase 1 (MKNK1, Homo sapiens, UniProt Q9BUB5) — remaining binding: 80%.
For Cyclin-dependent kinase-like 5 (CDKL5, Homo sapiens, UniProt O76039): remaining binding read 82%.
Tyrosine-protein kinase ABL1, non-phosphorylated (ABL1, Homo sapiens, UniProt P00519) — remaining binding: 85%.
It gave 99% for remaining binding (Ribosomal protein S6 kinase alpha-2, N-terminal kinase domain (RPS6KA2, Homo sapiens, UniProt Q15349)).
It gave 100% for remaining binding (Mitogen-activated protein kinase 14 (MAPK14, Homo sapiens, UniProt Q16539)).
The remaining binding was 99% (Serine/threonine-protein kinase Nek9 (NEK9, Homo sapiens, UniProt Q8TD19)).
It gave 90% for remaining binding (Serine/threonine-protein kinase VRK2 (VRK2, Homo sapiens, UniProt Q86Y07)).
For Glycogen synthase kinase-3 alpha (GSK3A, Homo sapiens, UniProt P49840): remaining binding read 100%.
The remaining binding was 94% (Dual specificity protein kinase CLK4 (CLK4, Homo sapiens, UniProt Q9HAZ1)).
The remaining binding was 100% (Mitogen-activated protein kinase 4 (MAPK4, Homo sapiens, UniProt P31152)).
For Serine/threonine-protein kinase TBK1 (TBK1, Homo sapiens, UniProt Q9UHD2): remaining binding read 78%.
It gave 77% for remaining binding (Serine/threonine-protein kinase 38 (STK38, Homo sapiens, UniProt Q15208)).
It gave 88% for remaining binding (Bone morphogenetic protein receptor type-1A (BMPR1A, Homo sapiens, UniProt P36894)).
Protein kinase C iota type (PRKCI, Homo sapiens, UniProt P41743) — remaining binding: 92%.
For Serine/threonine-protein kinase Sgk1 (SGK1, Homo sapiens, UniProt O00141): remaining binding read 100%.
For Tyrosine-protein kinase ZAP-70 (ZAP70, Homo sapiens, UniProt P43403): remaining binding read 82%.
Receptor-type tyrosine-protein kinase FLT3 (FLT3, Homo sapiens, UniProt P36888, ITD) — remaining binding: 91%.
Serine/threonine-protein kinase WNK4 (WNK4, Homo sapiens, UniProt Q96J92) — remaining binding: 100%.
For Serine/threonine-protein kinase Nek5 (NEK5, Homo sapiens, UniProt Q6P3R8): remaining binding read 100%.
Atypical kinase COQ8B, mitochondrial (COQ8B, Homo sapiens, UniProt Q96D53) — remaining binding: 74%.

Block 3
SMILES: COc1ccc2[nH]c3c4[nH]c5ccc(OC)cc5c4c4c(c3c2c1)C(=O)NC4=O
Concentration: 1 µM
Cyclin-dependent kinase-like 2 (CDKL2, Homo sapiens, UniProt Q92772); competitive binding panel; relative to: vehicle — remaining binding: 92%.
It gave 100% for remaining binding (Calcium/calmodulin-dependent protein kinase type II subunit beta (CAMK2B, Homo sapiens, UniProt Q13554); competitive binding panel; relative to: vehicle).
Serine/threonine-protein kinase 36 (STK36, Homo sapiens, UniProt Q9NRP7); competitive binding panel; relative to: vehicle — remaining binding: 70%.
For NUAK family SNF1-like kinase 2 (NUAK2, Homo sapiens, UniProt Q9H093); competitive binding; SNARK: remaining binding read 59%.
For Phosphatidylinositol 4,5-bisphosphate 3-kinase catalytic subunit alpha isoform (PIK3CA, Homo sapiens, UniProt P42336, Q546K); competitive binding panel; relative to: vehicle: remaining binding read 91%.
NUAK family SNF1-like kinase 1 (NUAK1, Homo sapiens, UniProt O60285); competitive binding panel, measured: ARK5; relative to: vehicle — remaining binding: 25%.
For Tyrosine-protein kinase BTK (BTK, Homo sapiens, UniProt Q06187); competitive binding panel; relative to: vehicle: remaining binding read 74%.
The remaining binding was 100% (Cyclin-dependent kinase 19 (CDK19, Homo sapiens, UniProt Q9BWU1); competitive binding panel, measured: CDK11; relative to: vehicle).
For Serine/threonine-protein kinase PLK3 (PLK3, Homo sapiens, UniProt Q9H4B4); competitive binding panel; relative to: vehicle: remaining binding read 88%.
It gave 76% for remaining binding (Serine/threonine-protein kinase haspin (HASPIN, Homo sapiens, UniProt Q8TF76); competitive binding panel; relative to: vehicle).

Block 4
Target: DNA polymerase theta, ATPase domain (POLQ, Homo sapiens, UniProt O75417)
UniProt O75417, sequence (whole entry, unmodified, looked up): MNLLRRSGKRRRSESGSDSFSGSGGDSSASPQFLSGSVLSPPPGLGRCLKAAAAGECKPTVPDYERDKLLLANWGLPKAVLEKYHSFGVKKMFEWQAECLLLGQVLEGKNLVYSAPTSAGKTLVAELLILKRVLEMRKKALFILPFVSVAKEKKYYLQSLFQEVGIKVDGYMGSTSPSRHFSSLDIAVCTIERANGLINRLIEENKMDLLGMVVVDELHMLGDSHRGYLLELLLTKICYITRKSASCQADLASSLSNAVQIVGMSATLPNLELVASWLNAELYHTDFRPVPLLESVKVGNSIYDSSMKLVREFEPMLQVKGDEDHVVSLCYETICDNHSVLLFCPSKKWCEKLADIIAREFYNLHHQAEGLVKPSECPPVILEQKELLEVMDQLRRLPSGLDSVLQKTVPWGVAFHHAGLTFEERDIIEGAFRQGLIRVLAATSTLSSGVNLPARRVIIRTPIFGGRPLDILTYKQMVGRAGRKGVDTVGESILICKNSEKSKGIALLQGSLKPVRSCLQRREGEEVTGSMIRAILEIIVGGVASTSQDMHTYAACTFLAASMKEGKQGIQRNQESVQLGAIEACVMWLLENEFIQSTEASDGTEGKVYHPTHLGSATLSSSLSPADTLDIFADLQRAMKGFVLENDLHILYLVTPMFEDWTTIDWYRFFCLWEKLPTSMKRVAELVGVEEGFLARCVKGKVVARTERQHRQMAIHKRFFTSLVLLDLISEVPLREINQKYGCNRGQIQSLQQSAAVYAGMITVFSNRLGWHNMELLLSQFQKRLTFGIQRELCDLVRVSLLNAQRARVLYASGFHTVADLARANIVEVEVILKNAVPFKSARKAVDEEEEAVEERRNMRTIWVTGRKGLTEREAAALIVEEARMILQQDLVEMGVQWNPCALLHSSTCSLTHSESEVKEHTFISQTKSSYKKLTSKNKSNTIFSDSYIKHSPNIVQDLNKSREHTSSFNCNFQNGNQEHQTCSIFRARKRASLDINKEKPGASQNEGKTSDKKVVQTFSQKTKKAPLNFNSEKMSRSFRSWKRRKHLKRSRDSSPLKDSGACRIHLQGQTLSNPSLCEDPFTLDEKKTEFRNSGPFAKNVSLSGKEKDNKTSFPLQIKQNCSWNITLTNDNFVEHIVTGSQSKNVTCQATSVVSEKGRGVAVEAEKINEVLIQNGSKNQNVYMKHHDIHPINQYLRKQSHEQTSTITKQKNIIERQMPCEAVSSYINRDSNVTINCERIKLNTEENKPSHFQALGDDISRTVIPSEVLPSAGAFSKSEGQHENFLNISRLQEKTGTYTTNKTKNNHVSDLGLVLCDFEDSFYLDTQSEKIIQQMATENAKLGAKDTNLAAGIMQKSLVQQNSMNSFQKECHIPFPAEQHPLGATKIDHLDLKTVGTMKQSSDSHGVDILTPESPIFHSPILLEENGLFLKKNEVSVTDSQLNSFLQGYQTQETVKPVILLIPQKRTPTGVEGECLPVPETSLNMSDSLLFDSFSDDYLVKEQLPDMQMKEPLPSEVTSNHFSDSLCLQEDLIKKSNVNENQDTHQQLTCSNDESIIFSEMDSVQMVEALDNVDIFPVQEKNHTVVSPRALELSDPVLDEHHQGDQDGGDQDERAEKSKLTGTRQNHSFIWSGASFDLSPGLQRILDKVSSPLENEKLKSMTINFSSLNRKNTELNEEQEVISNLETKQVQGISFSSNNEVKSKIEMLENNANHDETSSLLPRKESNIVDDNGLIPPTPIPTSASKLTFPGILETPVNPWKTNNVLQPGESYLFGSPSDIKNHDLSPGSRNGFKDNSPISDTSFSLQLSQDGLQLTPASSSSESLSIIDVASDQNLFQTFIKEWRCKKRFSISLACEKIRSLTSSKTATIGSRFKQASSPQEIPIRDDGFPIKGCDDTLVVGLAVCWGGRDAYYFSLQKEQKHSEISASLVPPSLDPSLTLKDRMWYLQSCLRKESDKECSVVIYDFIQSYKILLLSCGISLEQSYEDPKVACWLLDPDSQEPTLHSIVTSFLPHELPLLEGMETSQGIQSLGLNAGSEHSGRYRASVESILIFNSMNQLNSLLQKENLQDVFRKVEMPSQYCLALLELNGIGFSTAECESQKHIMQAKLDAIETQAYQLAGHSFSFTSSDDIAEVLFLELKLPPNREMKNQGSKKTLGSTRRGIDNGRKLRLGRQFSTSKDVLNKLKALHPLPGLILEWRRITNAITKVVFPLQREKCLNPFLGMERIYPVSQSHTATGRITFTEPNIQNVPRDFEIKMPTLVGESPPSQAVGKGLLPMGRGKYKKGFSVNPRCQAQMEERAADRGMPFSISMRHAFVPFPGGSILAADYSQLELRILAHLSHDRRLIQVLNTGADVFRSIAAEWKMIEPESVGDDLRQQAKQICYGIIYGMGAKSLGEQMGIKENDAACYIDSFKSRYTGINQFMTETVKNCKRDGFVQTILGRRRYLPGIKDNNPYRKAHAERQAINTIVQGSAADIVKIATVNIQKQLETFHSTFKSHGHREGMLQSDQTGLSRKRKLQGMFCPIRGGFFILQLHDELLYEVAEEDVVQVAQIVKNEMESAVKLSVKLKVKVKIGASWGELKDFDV
Observed: enzyme activity
Mode: inhibitor
Concentration: 77 µM
Relative to: untreated
The remaining activity of `COc1cc2c(cc1OC)[C@@H]1Cc3ccc(OC)c(OC)c3CN1CC2` is reported as 95%.
With `C[C@H]1[C@H]2CC[C@H]3[C@@H]4CC=C5C[C@@H](N(C)C)CC[C@]5(C)[C@H]4CC[C@]23CN1C` the remaining activity was 93.2%.
The remaining activity of `COc1cc2c(c(OC)c1OC)-c1c(cc3c(c1OC)OCO3)C[C@@H](C)[C@@H](C)C2` is reported as 98.2%.
For `CC(COc1ccccc1)NC(C)C(O)c1ccc(O)cc1` (stereo not shown), the remaining activity was 99.1%.
`CCOC(=O)[C@H]1O[C@@H]1C(=O)N[C@@H](CC(C)C)C(=O)NCCC(C)C` has a remaining activity of 90.9%.
With `O=C(c1ccccc1)c1ccc2nc(NC(=O)c3csc(C4CCN(c5ncnc6ccsc56)CC4)n3)[nH]c2c1` the remaining activity was 97.1%.
For `COC(=O)C1=CO[C@@H](O[C@@H]2O[C@H](CO)[C@@H](O)[C@H](O)[C@H]2O)[C@@H]2C(CO)=CC[C@H]12`, the remaining activity was 97.1%.
`COc1cc2c(cc1OC)-c1c/c(=N\c3c(C)cc(C)cc3C)n(C)c(=O)n1CC2` gave a remaining activity of 101%.
`CCOC(=O)c1[nH]c2cc(Cl)ccc2c1C(C(=O)NC(C)(C)C)N(C=O)Cc1ccc(Cl)cc1` (stereo not shown) has a remaining activity of 97.8%.
The remaining activity of `CCCCCCCC/C=C\CCCCCCCC(=O)NCCO` is reported as 98.5%.
The remaining activity of `Oc1ccc(C2CNCCc3c2cc(O)c(O)c3Cl)cc1` (stereo not shown) is reported as 95.9%.
The remaining activity of `N[C@@H](CS(=O)O)C(=O)O` is reported as 98.4%.
